Results gathered from unrelated publications.
Numbered parts are unrelated; each lists some results of a single study. Substitutions count along the parent as printed.

Study 1
Target: Prothrombin, mature alpha-thrombin (F2, Homo sapiens, UniProt P00734)
Method: aptamer microarray, sandwich
Form: DNA with 2'F-ANA
Medium: in vitro
Tested at: 200 nM
Setting: whole 15-mer aptamer, many near background
With: Cy3 exosite-II aptamer, 400 nM
Direction: higher = stronger binding
Oligonucleotide: GGTTGGTGTGGTTGG
| Modification | mean fluorescence intensity [a.u.] |
| --- | --- |
| 2'F-ANA at 3 7 8 11 14 | 669 |
| 2'F-ANA at 2 3 5 6 10 13 15 | 48.3 |
| 2'F-ANA at 1 3 9 11 14 15 | 122 |
| 2'F-ANA at 2 4 5 6 7 8 9 11 12 13 | 89.1 |
| 2'F-ANA at 1 2 5 8 11 13 | 52.7 |
| 2'F-ANA at 2 3 4 6 8 | 638 |
| 2'F-ANA at 1 3 5 6 10 12 13 15 | 49.6 |
| 2'F-ANA at 1 2 5 7 9 10 14 | 46.7 |
| 2'F-ANA at 2 4 5 7 8 10 11 13 15 | 52.3 |
| 2'F-ANA at 3 5 6 11 12 13 15 | 145 |
| 2'F-ANA at 1 3 4 6 7 8 9 10 12 13 | 163 |
| 2'F-ANA at 5 6 7 9 10 11 13 | 155 |
| 2'F-ANA at 1 2 5 6 7 8 11 12 14 15 | 52.9 |
| 2'F-ANA at 3 5 7 8 9 11 13 15 | 101 |
| 2'F-ANA at 1 3 5 8 9 10 11 12 13 14 | 45.3 |
| 2'F-ANA at 5 6 9 11 12 13 14 | 45.2 |
| 2'F-ANA at 2 3 4 7 9 11 13 14 | 233 |
| 2'F-ANA at 1 2 5 6 8 9 10 11 14 15 | 62.2 |
| 2'F-ANA at 1 2 4 8 9 10 11 12 13 14 15 | 52.9 |
| 2'F-ANA at 2 4 5 6 7 8 11 13 15 | 50.4 |
| 2'F-ANA at 3 6 7 9 10 13 14 15 | 316 |
| 2'F-ANA at 6 7 8 9 10 15 | 164 |

Study 2
Target: CCNF, cyclin fold, Cln2 fusion (human)
Method: yeast growth competition, sequencing
Medium: yeast
Setting: strong parent motif
Reference: not given
Direction: higher = stronger binding
Parent: CDC6 docking peptide (human); TLKGRRLVFDNQL; partner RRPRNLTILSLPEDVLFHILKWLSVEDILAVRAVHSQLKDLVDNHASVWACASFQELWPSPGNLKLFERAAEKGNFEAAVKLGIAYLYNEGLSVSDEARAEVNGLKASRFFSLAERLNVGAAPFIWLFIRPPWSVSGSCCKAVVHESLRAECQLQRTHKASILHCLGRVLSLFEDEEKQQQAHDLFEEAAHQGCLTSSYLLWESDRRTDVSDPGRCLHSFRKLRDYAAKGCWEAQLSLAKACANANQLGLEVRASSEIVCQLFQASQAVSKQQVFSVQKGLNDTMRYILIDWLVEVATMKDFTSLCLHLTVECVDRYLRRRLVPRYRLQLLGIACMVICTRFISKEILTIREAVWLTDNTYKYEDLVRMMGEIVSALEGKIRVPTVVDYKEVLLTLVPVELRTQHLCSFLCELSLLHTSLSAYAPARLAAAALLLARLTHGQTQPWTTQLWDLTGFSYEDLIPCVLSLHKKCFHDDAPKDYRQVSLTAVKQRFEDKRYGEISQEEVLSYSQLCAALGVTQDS
| Change | normalised enrichment score |
| --- | --- |
| R6Q | 6.76 |
| L2S | 7.08 |
| L2G | 7.34 |
| R5I | 2.19 |
| F9E | 0.755 |
| K3Q | 7.81 |
| Q12K | 8.38 |
| D10P | 8.2 |
| D10C | 8.49 |
| K3W | 7.72 |

Study 3
Target: RING finger protein unkempt homolog, zinc fingers 1-6, GST-SBP tag (UNK, Homo sapiens, UniProt Q9C0B0, residues 30-357)
Method: RNA Bind-n-Seq
Form: RNA
Medium: in vitro
Tested at: not given
Setting: RNA with constant flanks, human and mouse sites, ends assumed
Reference: input RNA pool
Direction: higher = stronger binding
Residues (chain): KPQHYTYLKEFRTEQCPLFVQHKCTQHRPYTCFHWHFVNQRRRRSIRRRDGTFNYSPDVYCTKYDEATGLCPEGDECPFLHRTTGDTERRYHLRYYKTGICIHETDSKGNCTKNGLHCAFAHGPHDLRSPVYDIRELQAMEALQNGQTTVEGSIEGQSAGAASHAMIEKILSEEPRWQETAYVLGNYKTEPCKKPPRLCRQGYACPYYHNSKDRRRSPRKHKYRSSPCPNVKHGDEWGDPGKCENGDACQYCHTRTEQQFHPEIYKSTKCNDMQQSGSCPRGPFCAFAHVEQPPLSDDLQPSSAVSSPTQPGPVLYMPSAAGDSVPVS
| Oligonucleotide | bound/input enrichment |
| --- | --- |
| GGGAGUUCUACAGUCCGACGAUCAACAGGACAGCCUGGUGCCCCAUUACACUCUGUAGGAGUUAUGCAAUUCAGAAGUGGAAUUUAGGAAAUCAUUUAUUUUGAUGUGUCAAUAGAGAGAUUUAUUGUCUGUAAAUUUGGAUGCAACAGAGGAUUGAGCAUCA | 7.53 ratio |
| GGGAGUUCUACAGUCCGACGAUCGUGACCAGCGCUGUGGACCAGCUGCAGCAGGAGUUCCACUGCUGUGGCAGCAACAACUCACAGGACUGGCGAGACAGUGAGUGGAUCCGCUCACAGGAGGCCGGUGGCCGUGUGGUCCCACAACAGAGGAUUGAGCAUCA | 0.047 ratio |
| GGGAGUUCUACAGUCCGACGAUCAGAUAGUAAUUUUUAAAAUUUGCUCUUGUCAUUUGGGAUUUGUUUUGUUUGGGAUUUUGUUGUGUGUGAUUUGUUUUGUUUUGUUUUGCAGAUUUCAGGUAACAAAGUGAGACGCUUAUGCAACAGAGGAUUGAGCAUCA | 11.4 ratio |
| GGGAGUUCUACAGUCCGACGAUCACUGUAGAGUUUGCAGAUGAGGUCCGGUUGUCCUUCAUCUGUACCGAAGUAGACUGCAAGGUGGUCCACGAAUUCAUUGGUGGUUACAUAUUUCUCUCAACUCGUGCGAAAGACCAAAAUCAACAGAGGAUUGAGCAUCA | 0.125 ratio |
| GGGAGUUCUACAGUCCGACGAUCUCCAGGUCUCUCCAAACUGACUAUAUAUUUAUUUGUUAUUUUAAAAAUACAACUAUAUUUUGGGUAGUUUUUUUUUUUUUUUUUUUGAUAAGUUGGUGUAAGGCUAUGUGACUUGAUCAACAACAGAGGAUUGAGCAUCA | 4.96 ratio |
| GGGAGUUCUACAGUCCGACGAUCAGGCCAUCCAUCAACAUGGAAGAGCUGGAUGACUCCUACCAGAAGGCCAUUGAACUCUUCUGUGUGUGCACUAAUGAGGAUCCUAAAGAUCGCCCGUCUGCUGCACACAUCGUUGAAGCUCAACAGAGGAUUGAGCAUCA | 0.0796 ratio |

Study 4
Target: Interferon regulatory factor 7, full length, phosphomimetic (IRF7, Homo sapiens, UniProt Q92985, residues 1-503, S471D/S472D/S475D/S476D/S477D/S483D/S484D/S487D)
Method: protein-binding microarray
Form: double-stranded DNA, one strand shown
Medium: in vitro
Tested at: 2200 nM top
Setting: 60-bp whole probe
With: salmon DNA 0.4 mg/ml
Reference: random background probes
Direction: higher = stronger binding
Shared flanks, not repeated: GCCTAGCAC … GTCTTGATTCGCTTGACGCTGCTG
Target sequence (chain): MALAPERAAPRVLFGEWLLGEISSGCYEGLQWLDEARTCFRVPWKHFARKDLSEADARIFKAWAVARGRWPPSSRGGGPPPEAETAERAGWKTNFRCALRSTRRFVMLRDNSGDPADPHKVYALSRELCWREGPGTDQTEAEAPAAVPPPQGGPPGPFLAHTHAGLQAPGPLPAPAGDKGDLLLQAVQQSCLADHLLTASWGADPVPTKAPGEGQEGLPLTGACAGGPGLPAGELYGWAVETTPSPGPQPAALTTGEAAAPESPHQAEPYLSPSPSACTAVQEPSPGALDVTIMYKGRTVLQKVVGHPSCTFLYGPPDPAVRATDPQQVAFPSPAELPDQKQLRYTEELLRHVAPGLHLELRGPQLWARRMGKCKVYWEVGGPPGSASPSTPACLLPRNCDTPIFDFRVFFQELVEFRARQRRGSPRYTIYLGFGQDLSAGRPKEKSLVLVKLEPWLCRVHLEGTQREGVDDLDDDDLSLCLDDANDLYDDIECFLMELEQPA
| Oligonucleotide | fitted relative affinity [z-score] |
| --- | --- |
| TGAGATCTCAGACTGGATTAGTGCTAG | -0.0553 |
| TTAGATTTCGACTATCGGTTAGTGCTA | 1.63 |
| TTCGGACTGGACTTTCGGTTAGTGCTA | 5.13 |
| GACGGTATCGAAACTGGGGACGTGCTA | 0.938 |
| TTAGGTCTCAGTCTCGATTAGTGCTAG | 0.512 |
| TTAGGTTACCTTTTCCTTTAGTGCTAG | 1.8 |
| TTAGGACTGGACTTTGGGTTAGTGCTA | -0.538 |
| TTAGGTATCGGGTTTCGGTAAGTGCTA | 1.73 |
| TTAGGTTACGGGACTGGGTTAGTGCTA | -0.192 |
| TCAGAGCTCCTCCTTCTCACTGTGCTA | 0.428 |
| TCAGATTTCAGTATCGATTAGTGCTAG | 1.4 |
| GACGATATCAGTCTTGAGACGTGCTAG | 0.332 |
| TTCGGTATCGGACTGGGTTAGTGCTAG | 0.649 |
| TACTCTCTCCATGTGTTTAAGTGCTAG | 1.81 |

Study 5
Target: ABI1, truncated, D143A, DHFR fusion (Arabidopsis thaliana)
Method: DHFR PCA, deep sequencing
Medium: yeast
Setting: methotrexate growth selection, single substitutions
With: (+)-ABA 4.8 µM
Reference: wild-type fitted maximum
Direction: higher = stronger binding
Parent: PYL1, truncated, DHFR fusion (Arabidopsis thaliana); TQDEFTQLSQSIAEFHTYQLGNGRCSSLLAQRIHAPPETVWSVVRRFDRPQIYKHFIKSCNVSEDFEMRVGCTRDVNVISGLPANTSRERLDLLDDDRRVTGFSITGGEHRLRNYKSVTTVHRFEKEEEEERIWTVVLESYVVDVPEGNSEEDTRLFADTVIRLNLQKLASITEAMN
| Change | relative binding score |
| --- | --- |
| K126D | 90.3% |
| V137A | 7.42% |
| G102I | -4.46% |
| V142M | 56.5% |
| Q2C | 76.7% |
| A158N | 8.62% |
| D159Q | -5.14% |
| E89K | 11.1% |
| V78E | -4.17% |
| S42H | 52.6% |
| P50W | 7.4% |
| L164H | 74.4% |
| V118K | 53.7% |
| V161Q | 2.3% |
| D95P | -3.35% |
| L94E | -4.81% |
| N165H | 3.25% |
| L82V | 42.4% |
| E125Y | 78.3% |
| S87R | 37.3% |
| V143T | 48.7% |
| E147G | 34.8% |
| L91P | 14.2% |

Study 6
Target: Centromere-binding protein 1, full length, N-terminal tag (CBF1, Saccharomyces cerevisiae, UniProt P17106, residues 1-351)
Sequence of UniProt P17106 (whole entry, looked up): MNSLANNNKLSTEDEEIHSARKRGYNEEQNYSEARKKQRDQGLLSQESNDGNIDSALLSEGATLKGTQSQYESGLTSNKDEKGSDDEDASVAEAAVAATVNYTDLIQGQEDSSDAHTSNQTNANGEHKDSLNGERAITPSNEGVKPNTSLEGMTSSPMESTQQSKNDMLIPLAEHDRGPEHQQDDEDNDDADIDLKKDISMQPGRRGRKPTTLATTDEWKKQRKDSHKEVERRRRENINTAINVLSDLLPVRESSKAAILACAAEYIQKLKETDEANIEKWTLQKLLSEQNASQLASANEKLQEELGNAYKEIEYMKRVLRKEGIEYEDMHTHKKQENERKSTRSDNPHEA
Method: protein-binding microarray
Form: double-stranded DNA, one strand shown
Medium: in vitro
Tested at: 0.8 µM
Setting: whole 60-bp probe, no competitor
Direction: higher = stronger binding
| Oligonucleotide | fluorescence intensity [a.u.] |
| --- | --- |
| CTACTTTATTTATCCAACGTGAACAAGTACTTTTTCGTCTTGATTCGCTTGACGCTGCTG | 740 |
| CTAATTTCAACCATCCTCGTGTCCTTGTTGTTATTCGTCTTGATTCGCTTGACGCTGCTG | 610 |
| CTAAGCACACGCCCTCACGTGAGTGAATTTGCCTTCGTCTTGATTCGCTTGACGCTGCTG | 7640 |
| GAAATCGGCGGTGATGGTGATGATGAATCATCTTAGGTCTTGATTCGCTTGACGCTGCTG | 501 |
| CTACGTTTACGCTCGCGCGTGGGCTAACTAACGTTCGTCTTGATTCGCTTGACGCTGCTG | 543 |
| CTATTCTTCTATACGTTCGTGATACTGCACTTATTCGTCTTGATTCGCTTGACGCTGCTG | 552 |
| GAAGAATAAGCTGGTCATGATGTCGCTATTTCTTAGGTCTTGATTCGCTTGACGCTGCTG | 626 |
| CTATATGAAGTTGCACACATCAGCGGGAAAGATTTCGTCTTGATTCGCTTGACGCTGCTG | 542 |
| CTATGTTAATTGTATGGCGTGTGGCCTTGCTATTTCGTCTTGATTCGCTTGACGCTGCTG | 540 |
| CTATTATAGTAAAGTCACGTCAACCTTTGTTACTTCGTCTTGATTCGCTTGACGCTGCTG | 674 |
| GAAAAATCGCATTGATTCGTCACCGCGCGGTAGTAGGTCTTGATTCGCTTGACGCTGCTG | 484 |
| CTATAAGGCCATTGTCACCTTCGGCCAGCGATATTCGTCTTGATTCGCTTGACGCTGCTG | 508 |
| GAATACACAATGTTTCTCGTGGTACAGTTTCGATAGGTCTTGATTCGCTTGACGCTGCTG | 563 |
